Assay results gathered from unrelated publications.
Protocols differ between the studies behind these lines. ± gives the spread as reported.
Cell line: Caco-2 monolayer

`O=c1c(O[C@@H]2O[C@H](CO)[C@H](O)[C@H](O)[C@H]2O)c(-c2ccc(O)c(O)c2)oc2cc(O)cc(O)c12` has a Papp increase of 23.7% (transwell permeability; 100 µg/mL, apical to basolateral, HBSS, DMSO 1%, added: verapamil 0.1 mg/mL; reference: verapamil alone).
The Papp (B-A) of `Cn1nc2c(=O)n(C3CC3)ccc2c1[C@](O)(c1cnc(C(F)(F)F)c(Cl)c1)C(F)(F)F` is reported as 70.2 ×10⁻⁶ cm/s.
The recovery of `COc1ccc(-c2coc3cc(O)cc(O)c3c2=O)cc1` is reported as 100.2 ± 0.3% (100 µg/mL, 2 h, apical to basolateral).
The Papp of `CC(C)NCC(O)COc1cccc2ccccc12` (centres unmarked) is reported as 62.4 ×10⁻⁶ cm/s.
`Cc1nn(C2CC2)c(=O)c2nn(C)c(Cc3ccc(C(F)(F)F)c(C#N)c3)c12` has a Papp (B-A) of 61.2 ×10⁻⁶ cm/s.
For `O=c1cc(-c2ccc(O)cc2)oc2c([C@@H]3O[C@H](CO)[C@@H](O)[C@H](O)[C@H]3O)c(O)cc(O)c12`, the Papp increase was 26.9% (transwell permeability; 100 µg/mL, apical to basolateral, HBSS, DMSO 1%, added: verapamil 0.1 mg/mL; reference: verapamil alone).
`CO/N=C(\C(=O)N[C@@H]1C(=O)N2C(C(=O)O)=C(CSC(=O)c3ccco3)CS[C@H]12)c1csc(N)n1` gave a Papp of 1 to 10 ×10⁻⁶ cm/s (200 µg/mL, 120 min, pH 7.4, without luteolin).
For `CC(=O)N[C@H]1[C@H]([C@H](O)[C@H](O)CO)OC(C(=O)O)=C[C@@H]1N=C(N)N`, the Papp was 0.043 ± 0.003 ×10⁻⁶ cm/s (HBSS; 180 min, apical to basolateral).
The Papp (B-A) of `Cn1nc2c(=O)n(C3CC3)cnc2c1[C@](O)(c1cnc(C(F)(F)F)c(Cl)c1)C(F)(F)F` is reported as 70.5 ×10⁻⁶ cm/s.
`O=C(CS)NCCCCCC(=O)Nc1cccc2cccnc12` has an efflux ratio of 0.93 (added: N-benzyl-indomethacin 145 µM; reference: Papp B-A over Papp A-B).
`C[C@@H]1O[C@@H](OC[C@H]2O[C@@H](Oc3c(-c4ccc(O)c(O)c4)oc4cc(O)cc(O)c4c3=O)[C@H](O)[C@@H](O)[C@@H]2O)[C@H](O)[C@H](O)[C@H]1O` gave a Papp increase of 10.8% (transwell permeability; 100 µg/mL, apical to basolateral, HBSS, DMSO 1%, added: digoxin 5 ng/mL; reference: digoxin alone).

Some of these lines once more:
`O=C(CS)NCCCCCC(=O)Nc1cccc2cccnc12` has an efflux ratio of 0.93 (added: N-benzyl-indomethacin 145 µM; reference: Papp B-A over Papp A-B).
